Published values collected from several papers.
Parts stem from different laboratories: compare values within a part only.

Series 1
Target: Interferon regulatory factor 5, full length, phosphomimetic (IRF5, Homo sapiens, UniProt Q13568-2, residues 1-514, K96S/S451D/S453D/S456D/S462D)
Method: protein-binding microarray
Molecule type: double-stranded DNA, one strand shown
Sample: in vitro
Tested at: 250 nM
Setting: 60-bp whole probe
With: salmon DNA 0.4 mg/ml
Baseline: random background probes
Direction: higher = stronger binding
All sequences stand within: GCCTAGCAC … GTCTTGATTCGCTTGACGCTGCTG
Sequence	log fluorescence [z-score]
GACGGTCTGGGGACTGGGGACGTGCTA	-0.485
TTAGGTTTCGGGACTTGGTTAGTGCTA	5.77
TTAGGTTTCGGGTATCTGTTAGTGCTA	9.15
TCACAATTCTTTTTATGACTGTGCTAG	1.1
TCACTTTCCAACTCTGTTACTGTGCTA	1.21
GACGCTTTCGGGTATCGAGACGTGCTA	9.04
TACGAACTGGGGTTTCGAGACGTGCTA	0.997
TTAGGTATCGGTCTCGTTTAGTGCTAG	6.99
TGGGAGCTCAGGAATCCCACGTGCTAG	-0.814
TTAGATTTCGGGAATCGATTAGTGCTA	3.55
TTAGGTTTCGGTTTAGGTTAGTGCTAG	10.8
TTAGGTCTCCTTATCCTATAGTGCTAG	-0.145
TTACATATCGGGACTGGATTAGTGCTA	1.47
CACGATTTCAGTTCCGAGACGTGCTAG	1.14
TTAGGTATCCTACTGCTTTGGTGCTAG	-0.0876
TCATGTTCCCTCATCAGACTGTGCTAG	0.281

Series 2
Target: RING finger protein unkempt homolog, zinc fingers 1-6, GST-SBP tag (UNK, Homo sapiens, UniProt Q9C0B0, residues 30-357)
UniProt Q9C0B0, sequence (30-357, looked up): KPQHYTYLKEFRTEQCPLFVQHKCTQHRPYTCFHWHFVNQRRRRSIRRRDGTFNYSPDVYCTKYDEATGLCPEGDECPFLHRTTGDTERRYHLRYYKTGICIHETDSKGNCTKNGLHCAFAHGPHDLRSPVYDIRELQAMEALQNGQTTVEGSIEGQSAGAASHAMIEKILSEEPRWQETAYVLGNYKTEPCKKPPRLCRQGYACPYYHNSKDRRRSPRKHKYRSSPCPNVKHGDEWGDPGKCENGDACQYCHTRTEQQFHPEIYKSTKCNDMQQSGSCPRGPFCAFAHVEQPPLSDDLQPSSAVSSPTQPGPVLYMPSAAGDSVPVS
Method: RNA Bind-n-Seq
Molecule type: RNA
Sample: in vitro
Tested at: not given
Setting: RNA with constant flanks, human and mouse sites, ends assumed
Baseline: input RNA pool
Direction: higher = stronger binding
Sequence	bound/input enrichment
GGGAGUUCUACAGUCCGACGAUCUCUUUGACCCAGAUUGUGUGACCCUGUGCCAGUGGGGGGGUUGAGGGUGGGACGGUGUCCGUGUUGUUGCUUUCCCACCCUGCAGCGCACUGGACUGAAGAGCUUCCCUCUUCCUACUGCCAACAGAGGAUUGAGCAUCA	0.243 ratio
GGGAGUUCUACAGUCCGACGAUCUCUGAGACUUCUUUCUUCCUUCCUUUUUUUUUUUUUGUUUUUUUUUUUAAGAGCCUGUGAUAGUUACUGUGGAGCAGCCAGUUCAUGGGGUCCCCCUUGGGGCCCCACACCCCGUCUCUCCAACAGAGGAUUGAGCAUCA	2.57 ratio
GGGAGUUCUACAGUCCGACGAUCGUUAUCAAGUUCGAUACAGAGGAGGAGGCUAUAGCAAUCGCUAACGCAGCUGAUGUUGGGUUAGCAGGUUAUUUUUACUCUCAAGACCCAGCCCAGAUCUGGAGAGUGGCAGAGCAGCUGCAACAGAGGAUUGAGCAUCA	0.168 ratio
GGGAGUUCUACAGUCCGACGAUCAUUAUUGAAGAAGAUUUUAAUAUUGCACUAGGAGUUUUUGCUUUAGCUGGACUAACAGAUUUGUUGGAUGGAUUUAUUGCUCGAAACUGGGCCAAUCAAAGAUCAGCUUUGGGAAGUGCUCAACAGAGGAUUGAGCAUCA	1.51 ratio
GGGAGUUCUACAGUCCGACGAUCUAUUUACAACAGCUCACCGGAGCGAGAACAGUUCCUCGGGUCUUCAUAGGUAAAGACUGCAUAGGCGGAUGCAGUGAUCUAAUCUCCAUGCAACAGACUGGGGAGCUGAUGACUCGGCUGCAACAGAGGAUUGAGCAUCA	0.216 ratio
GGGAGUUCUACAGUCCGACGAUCGGCUUAAACAAAUCUGAAGUUAGUCAUAGGCGAGCCUUCCAUGGUUGGAAUGAAUUUGAUAUCAGUGAAGAUGAACCAUUAUGGAAGAAGUAUAUUUCUCAGUUUAAAAAUCCCCUUAUCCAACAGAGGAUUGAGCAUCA	0.297 ratio
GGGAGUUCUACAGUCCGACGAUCGGCCCGCAGGAAAUGAGGAAUGGCCGAGCUGGAGAGAAGAGCUGAUUUUGGCAUUACUAAGCCCAGAACGCACAUAACCCAUAGUGAAAUGUGCUGGCCUCUGGUGCAUUUUGCAAGAUGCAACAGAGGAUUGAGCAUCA	0.281 ratio
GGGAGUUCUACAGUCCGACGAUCAAUGUGCUGUGUCAAGAGCAGCGGCGGUGACGCAGGUGUAGAGAUUUGUCAGAGCUCAUGUAGUUGUAGUCUUAAGGCCUGUGCAUUUCACUGCGUGGGUUACUCAAUUUAUAAAGCAAACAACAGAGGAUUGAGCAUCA	1.06 ratio
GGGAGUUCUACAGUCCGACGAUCCUUACAACAUCAAAGCAUGCUGAGCCCCCAUACAGGAUACCAAGUGACCAGGUCUUUCCUAUAGCUAGGGAAGAAGCACCAAUAAACUUAUCUCUAGGUACUCCAGCACAUGCAGUGACACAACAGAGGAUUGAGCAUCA	0.143 ratio
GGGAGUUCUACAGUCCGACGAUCGAUUUUGAGACGGAGCACAAAUUGGACCCUGUAUUUGAUUCUCCACGGAUGUCCCGCCGUAGUUUGCGCCUGGCCACGACAGCAUGCACCCUGGGGGAUGGUGAGGCUGUGGGUGCCGACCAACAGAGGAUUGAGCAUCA	0.363 ratio
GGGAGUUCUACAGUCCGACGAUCGCUCAGUUGCUUACAGGUUUGUGACAAGAAGUGAGAACAUUUUGGAGAAGGCAACAACAUACCUAAUACUUUGUUUUCACUGAUUUAUAAACAUUAUACAUUAACCAUCACGACUGUAUGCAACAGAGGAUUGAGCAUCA	0.152 ratio

Series 3
Target: RNA binding protein fox-1 homolog 2, RRM domain, GST-SBP tag (RBFOX2, Homo sapiens, UniProt O43251-10, residues 100-194)
Method: RNA Bind-n-Seq
Molecule type: RNA
Sample: in vitro
Tested at: 365 nM
Setting: natural RNA segment, single round, ends assumed
Baseline: no-protein control
Direction: higher = stronger binding
Target sequence (chain): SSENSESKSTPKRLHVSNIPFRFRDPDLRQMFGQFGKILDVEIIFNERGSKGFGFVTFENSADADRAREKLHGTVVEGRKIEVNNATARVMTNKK
Sequence	RBNS enrichment (R)
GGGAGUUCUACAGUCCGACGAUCCAUCGCCCUGGUGAACGGGGUCAGCGGCGAGCUCAUCGAGGCCCGGGCCUUUGACAUGUGGGCCGGAGUGAGUUGCAGCGCAGCGUCUUGCAUUUUGACUGCAGCAAAAUUGGAAUUCUCGGGUGCCAA	1.43
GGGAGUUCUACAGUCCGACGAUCGUGUCCAUGACAUAGACCCUGCCCUUCCUCUUUGAAUUCUUCCGGGGGAAGGGGUGACUGAACUGGGAGUCCAGGGAGGGAGCUGAGGAGCCCUUACCCUCCCACCACUCUGGAAUUCUCGGGUGCCAA	0.247
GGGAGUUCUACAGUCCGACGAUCGUUCAUCAGCUUAGGUCAUUUGAAAGAUAUAAGAGCUUAAGGCAAGAAAGAAAUAACAUGGAAUUCUAUUUGAAGGACAACAGAACAUUCUUGGAAAAGCAGCUCCAGUUUGGAAUUCUCGGGUGCCAA	0.324
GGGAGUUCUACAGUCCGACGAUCCCUUUUGCUGUGAGUGACUUAACAGUGCAGGUUCUUGUUGCCUUCACUGUUAACCCUGAGAGCACAUAAUCUGAUGCAUGUGUGACUAAGAAUAAGCCUAUGGUCAUGGGUGGAAUUCUCGGGUGCCAA	6.01
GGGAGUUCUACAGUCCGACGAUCGUGCCUUCCAAACCAAACUGCCCCUCAUGAGGUUAGGGUCCCCCACCCUCCACCUGCCCAGAGGCCAACUCUGUUCCCUUCUCCUUUCAUCCCAGAGGGGCCUCAUCAGCUGGAAUUCUCGGGUGCCAA	0.538
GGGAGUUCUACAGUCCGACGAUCAUUAACUAUUGGUAUACUACUGGUUUUAUAUUUUUUUUUCUUUGAGACAACAGUACAUAUAAUAGAGGUACAAUUCGUUGGAUUUUUGUUUAUGUAUUUAUUUCAUUCCAUGGAAUUCUCGGGUGCCAA	0.656
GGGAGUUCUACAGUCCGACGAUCUUGUAAAAUUUAAACAUCGUAUGCGCAUAAAGAAAAAGGAAACAAGAAUUAGGGGAAAAUAACAUUUUCCAAAUAAUUAUAAAAAAUUGUCCUGUGUCUAUGUAUCUAUAUGGAAUUCUCGGGUGCCAA	0.536
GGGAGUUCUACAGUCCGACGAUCGUAGAGUUUUUAGAUUACUUUUUCAAUGUAAAUAAUGUAUAUUUAAUGUCACAAGAAAUUGUUUUCUGCAAAUUCUCUAGUAUAGAAAGUUUUGUAGAAGAAAAAUUAUUUGGAAUUCUCGGGUGCCAA	0.864
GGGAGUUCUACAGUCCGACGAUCCAUCUGCUGGUCAUUUCGCCCUGACAGUCCCAACCAGAACCCCUGGGACUUGAAUCCAGAGACGUCCUCCAGGAACCCCUCAACGAAGCUGUGAAUGAAGAGGUUUCCUCUGGAAUUCUCGGGUGCCAA	0.559
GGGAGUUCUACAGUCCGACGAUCCAUAUAUUUUCAGGUUCUGCCCACACUGUGAGGUUUUUCUAGAAUCACUGAGUUUCUGAUUUAGUAGUUUGUUCUGUAGAUCCCCAAAGCUGUGCUGUGUAUUGGUGGUUUGGAAUUCUCGGGUGCCAA	1.38
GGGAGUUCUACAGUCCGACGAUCUUAAGGAUUUUCUGGGUUCCUGUGACCCUCAGGUUAUUUUAAAGCAAUUGGAAGAGCAUAUGAACACGGGCCAGCUAGCAGGAUUUUCACAUCAAGUUAGAAGUCUGAUUUGGAAUUCUCGGGUGCCAA	0.548
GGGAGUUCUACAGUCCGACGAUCGAGAUGUUUUUGUUGCAUUGUGUUCUCAUAGCCUAUGCACAUCCUUAUGUUCUUCUAAGUAAUGCCUAUGACCCAAUGCAACUAGGCAGUAAGUAUCCACGACUCCAACCUGGAAUUCUCGGGUGCCAA	0.35

Series 4
Target: PABPC1L2, full length, GST fusion (mouse, UniProt A0ABA7IW68)
Method: RNAcompete
Molecule type: RNA
Sample: in vitro
Tested at: 20 nM
Setting: 7-mer, probes averaged, single round
Baseline: mean of 7-mers
Direction: higher = stronger binding
Target sequence (chain): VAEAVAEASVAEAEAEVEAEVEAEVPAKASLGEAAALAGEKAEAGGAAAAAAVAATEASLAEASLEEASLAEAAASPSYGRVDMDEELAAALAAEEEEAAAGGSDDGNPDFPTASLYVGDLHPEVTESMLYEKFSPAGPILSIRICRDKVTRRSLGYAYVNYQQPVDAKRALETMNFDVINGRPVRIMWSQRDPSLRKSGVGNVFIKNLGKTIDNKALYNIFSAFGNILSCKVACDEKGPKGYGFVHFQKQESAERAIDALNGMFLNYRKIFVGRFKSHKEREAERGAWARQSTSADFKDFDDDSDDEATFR
Sequence	7-mer Z-score
AUCGCGG	-0.0047
GGGGGAC	0.503
GUAGAUA	-0.0863
GUCGGCU	-0.291
CCGGUGG	-0.162
AGCGUUU	-0.257
UGGGGGU	0.291
AAUAGGU	0.215
UGUGAAA	0.523
CAGUGGC	-0.0627
GCUGGAG	0.0424
UUAAUAA	0.0932
CAUCGGC	-0.22
CGGAGCU	-0.00652
AUCAUGG	0.213
CUGAAGG	-0.0047
CCAUUCU	-0.371
UCCACCA	-0.17
ACGGUGA	-0.0464
ACUUGUA	-0.208

Series 5
Target: Sal-like protein 4, full length isoform B (SALL4, Homo sapiens, UniProt Q9UJQ4-2, residues 1-616)
Method: universal PBM
Molecule type: double-stranded DNA, one strand shown
Sample: in vitro
Tested at: not given
Setting: 8-mer, flanks averaged, mean of replicates
Direction: higher = stronger binding
Sequence	E-score
CCTCAACA	0.141
TGGTGGAA	-0.0462
GATCACGC	-0.115
CCTGAGGA	-0.121
CATCCGGA	-0.14
CTCGAAAG	-0.0908
GGCCCCGA	-0.328
AGGATAAC	-0.0249
CACCCACG	-0.274
AGGAGCCA	-0.161
CGGTCTAC	-0.0988
CGGCCTTA	-0.0659
CTAACTAA	0.106
AGAAAACG	0.0229
CGGAGTAG	-0.126
AGAGGCAG	-0.209
CTGTTACC	-0.0138
CGGTCCGA	-0.326
AAGCACGC	-0.171
AATGTCTA	0.208
GAGCGGAC	-0.332
AGGATGTC	-0.101
CGGCAACC	-0.356
GTGTCCTA	-0.0727
AAAACCCG	-0.0714

Excerpt of the above (series 5):
Sequence	E-score
CGGCAACC	-0.356
TGGTGGAA	-0.0462
AAAACCCG	-0.0714
CTGTTACC	-0.0138
GATCACGC	-0.115
AGAGGCAG	-0.209
CGGCCTTA	-0.0659
AGGATAAC	-0.0249
CGGAGTAG	-0.126
